Assay results collected from several papers.
Each line is one published result; not all experiments were run side by side. ± gives the spread as reported.

`O=C1c2c(O)c(=O)ccn2N([C@@H]2c3ccccc3SCc3c2ccc(F)c3F)[C@@H]2COCCN12` gave a trough concentration of 33.6 ng/mL (BALB/c mouse; subcutaneous, 4 mg/kg q12h).
For `N=C(N)NCCC[C@@H]1NC(=O)[C@H](CCCCNC(=O)c2ccc(CNC34CNCCNCC(N)(CNCCNC3)CNCCNC4)cc2)NC(=O)[C@@H](Cc2ccc(O)cc2)NC(=O)[C@H](CC(=O)O)NC(=O)CNC1=O` [copper-64 labelled], the tissue uptake was 0.15 ± 0.02 %ID/g (microPET; male athymic nude mouse, PC-3 tumour, muscle; intravenous, 7.4 MBq, 24 h).
For `COc1cc2c(Oc3ccc4[nH]c(C)cc4c3F)ccnc2cc1OCC1(N)CC1`, “grade 1 or 2 sinus arrhythmia” read 0% (paediatric recurrent refractory sarcoma; 12 mg).
`Cn1cc(CN2CCCC(COc3ccccc3C(=O)N3CCCCC3)C2)c2ccccc21` (stereo not shown) gave a cytotoxicity efficacy of 0% (Vero-E6; CellTiter-Glo ATP; concentration not given, 72 h, first round 5-point; relative to: DMSO 0%, hyamine -100%, more negative, more toxic).
For `CC(=O)N1CCC(C(=O)N2CCN3C(=O)c4cc(-c5ccccc5)ccc4NC(=O)C3C2)CC1` (stereo not shown), “fold increase in revertants” read 1.9 (Salmonella typhimurium; TA1537; 500 µg/plate, with: rat liver S9; relative to: vehicle).
For `CN1CC[C@@H](c2c(O)cc(O)c3c(=O)cc(-c4ccc(C(F)(F)F)cc4Cl)oc23)[C@@H]1CO`, “patients with adverse event” read 0% (item: Chills; B-cell malignancies or AML; oral, 100 mg, continuous dosing).
The tissue uptake of `CC[C@H](C)[C@H](NC(=O)[C@H](Cc1ccccc1)NC(=O)[C@H](CCC(=O)O)NC(=O)[C@H](CCCNC(=N)N)NC(=O)[C@H](C)NC(=O)[C@H](C)NC(=O)[C@H](CCC(N)=O)NC(=O)[C@H](CCC(=O)O)NC(=O)[C@H](CCC(=O)O)NC(=O)[C@H](CC(C)C)NC(=O)[C@H](Cc1ccc(O)cc1)NC(=O)[C@H](CO)NC(=O)[C@H](CO)NC(=O)[C@@H](NC(=O)[C@H](CC(=O)O)NC(=O)[C@H](CO)NC(=O)[C@@H](NC(=O)[C@H](Cc1ccccc1)NC(=O)[C@@H](NC(=O)CNC(=O)[C@H](CCC(=O)O)NC(=O)[C@H](C)NC(=O)CCc1c[nH]cn1)[C@@H](C)O)[C@@H](C)O)C(C)C)C(=O)N[C@@H](C)C(=O)N[C@@H](Cc1c[nH]c2ccccc12)C(=O)N[C@@H](CC(C)C)C(=O)N[C@H](C(=O)N[C@@H](CCCNC(=N)N)C(=O)NCC(=O)N[C@@H](CCCNC(=N)N)C(=O)N[C@@H](CCCCNC(=O)COCCOCCNC(=O)COCCOCCNC(=O)CC[C@H](NC(=O)CCCCCCCCCCCCCCCCC(=O)O)C(=O)O)C(=O)NCC(=O)NCC(=O)N[C@@H](CO)C(=O)N[C@@H](CCCCNc1c(NCCCCCN(O)C(=O)CCC(=O)NCCCCCN(O)C(=O)CCC(=O)NCCCCCN(O)C(C)=O)c(=O)c1=O)C(=O)O)C(C)C` [zirconium-89 labelled] is reported as 0.04 %ID/g (rat, blood; iv, 3 nmol/kg, 72 h, ex vivo).
The Cmax of `CC(=O)c1c(C)c2cnc(Nc3ccc(C4CCN(CCS(C)(=O)=O)CC4)cn3)nc2n(C2CCCC2)c1=O` is reported as 345 ng/mL (beagle dog, female, fasted, blood; oral gavage, 15 mg/kg, acidified methylcellulose vehicle).
The maximum response of `COCCCNC(=O)C1CCN(Cc2cc3ccccc3n2Cc2cccc(Cl)c2)CC1` is reported as -9.91% (Vero-E6; CellTiter-Glo ATP; 72 h, second round 5-point; relative to: DMSO 0%, hyamine -100%, more negative, more toxic).
For `C[C@H]1CN(c2n[nH]c3nc(N[C@H]4CC[C@H](NS(=O)(=O)CCC(F)(F)F)CC4)ncc23)CCO1`, the relative abundance was 1.11 (Myosin-9 (MYH9, Homo sapiens, UniProt P35579); inhibitor, Kinobeads competition profiling; 0.8 µM; relative to: vehicle).
`CC(C)[C@@H]1NC(=O)[C@H](Cc2ccccc2)NC(=O)[C@@H]2NC(=O)[C@H](Cc3ccccc3)NC(=O)[C@@H]3CCCN3C(=O)CNC(=O)[C@H](Cc3ccccc3)NC(=O)[C@@H]3CNCCCC[C@@H](C(=O)O)NC(=O)[C@@H]4NC(=O)[C@H](CC(N)=O)NC(=O)CNC(=O)[C@H]([C@@H](O)C(=O)O)NC(=O)[C@H](CSC[C@@H](NC(=O)[C@H](CCC(N)=O)NC(=O)[C@H](CCCCNC(=O)c5ccc(NN)nc5)NC(=O)[C@@H](N)CS[C@H]4C)C(=O)N[C@@H](CS[C@H]2C)C(=O)N3)NC1=O` [technetium-99m labelled] gave a half-life of 14.6 min (rat 45 min ischemia, 2 h reperfusion, normal myocardium).
For `CO[C@H]1C[C@@H]2CC[C@@H](C)[C@@](O)(O2)C(=O)C(=O)N2CCCC[C@H]2C(=O)O[C@H]([C@H](C)C[C@@H]2CC[C@@H](OC(=O)NCCOCCOCCOCCOCCOCCOCCOCCOCCC(=O)N3CCc4cc(Cn5nc(-c6ccc7oc(N)nc7c6)c6c(N)ncnc65)ccc4C3)[C@H](OC)C2)C[C@@H](O)[C@H](C)/C=C(\C)[C@@H](O)[C@@H](OC)C(=O)[C@H](C)C[C@H](C)/C=C/C=C/C=C/1C`, “AEs causing dose modification” read 66.7% (phase 1 dose escalation; advanced solid tumour patients; intravenous, 6 mg weekly, any grade).
`COc1ccc2c(Sc3ccccc3)c(C(=O)NCCCN3CCCCC3)[nH]c2c1` has a cytotoxicity efficacy of -17.1% (Vero-E6; CellTiter-Glo ATP; concentration not given, 72 h, second round 5-point; relative to: DMSO 0%, hyamine -100%, more negative, more toxic).

A few entries again:
`COc1ccc2c(Sc3ccccc3)c(C(=O)NCCCN3CCCCC3)[nH]c2c1` has a cytotoxicity efficacy of -17.1% (Vero-E6; CellTiter-Glo ATP; concentration not given, 72 h, second round 5-point; relative to: DMSO 0%, hyamine -100%, more negative, more toxic).
The tissue uptake of `CC[C@H](C)[C@H](NC(=O)[C@H](Cc1ccccc1)NC(=O)[C@H](CCC(=O)O)NC(=O)[C@H](CCCNC(=N)N)NC(=O)[C@H](C)NC(=O)[C@H](C)NC(=O)[C@H](CCC(N)=O)NC(=O)[C@H](CCC(=O)O)NC(=O)[C@H](CCC(=O)O)NC(=O)[C@H](CC(C)C)NC(=O)[C@H](Cc1ccc(O)cc1)NC(=O)[C@H](CO)NC(=O)[C@H](CO)NC(=O)[C@@H](NC(=O)[C@H](CC(=O)O)NC(=O)[C@H](CO)NC(=O)[C@@H](NC(=O)[C@H](Cc1ccccc1)NC(=O)[C@@H](NC(=O)CNC(=O)[C@H](CCC(=O)O)NC(=O)[C@H](C)NC(=O)CCc1c[nH]cn1)[C@@H](C)O)[C@@H](C)O)C(C)C)C(=O)N[C@@H](C)C(=O)N[C@@H](Cc1c[nH]c2ccccc12)C(=O)N[C@@H](CC(C)C)C(=O)N[C@H](C(=O)N[C@@H](CCCNC(=N)N)C(=O)NCC(=O)N[C@@H](CCCNC(=N)N)C(=O)N[C@@H](CCCCNC(=O)COCCOCCNC(=O)COCCOCCNC(=O)CC[C@H](NC(=O)CCCCCCCCCCCCCCCCC(=O)O)C(=O)O)C(=O)NCC(=O)NCC(=O)N[C@@H](CO)C(=O)N[C@@H](CCCCNc1c(NCCCCCN(O)C(=O)CCC(=O)NCCCCCN(O)C(=O)CCC(=O)NCCCCCN(O)C(C)=O)c(=O)c1=O)C(=O)O)C(C)C` [zirconium-89 labelled] is reported as 0.04 %ID/g (rat, blood; iv, 3 nmol/kg, 72 h, ex vivo).
